Published values pooled from the literature.
Protocols differ between the studies behind these lines. ± gives the spread as reported.
Organism: Leishmania donovani

Molecule	test	system	setting	IC50
O=Cc1cn(Cc2ccc(F)cc2)c2ccc([N+](=O)[O-])cc12	parasite growth, resazurin		promastigote	92.5 µM
C[C@@H]1N[C@H](CCCCCCCCCCC2=C[C@@H](CCCCCCCCCC[C@@H]3CC[C@@H](O)[C@H](C)N3)[C@@H]3CCCN3C2)CC[C@H]1O	parasite growth, resazurin		72 h, promastigote	0.18 µg/mL
CN1CCN2CCN(CC1)CCN(Cc1ccccc1)CC2	parasite growth, resazurin		72 h, amastigote	> 20 µM
COc1cc2c(=O)c(C(=O)NCCNCCO)cn(Cc3ccccc3)c2cc1OCc1cccc(F)c1		Bob promastigotes	120 h	> 20 µM
Cc1ccc(Cn2cc(C=O)c3cc([N+](=O)[O-])ccc32)cc1	parasite growth, resazurin	THP-1	24 h, intracellular, amastigote	> 10 µM
CCOc1ccc(Nc2c3c(nc4ccccc24)CCC3)cc1		DD8 resistant line, promastigotes		14.5 ± 0.55 µM
c1ccc(CN2CCN3CCCN(CC2)CCN(Cc2ccccc2)CC3)cc1	parasite growth, resazurin		72 h, amastigote	> 25 µM
O=Cc1cn(Cc2cccc(Cl)c2)c2ccc([N+](=O)[O-])cc12	parasite growth, resazurin	THP-1	24 h, intracellular, amastigote	> 10 µM
c1ccc(CN2CCN3CCN(CC2)CCN(Cc2ccccc2)CC3)cc1	parasite growth, resazurin		72 h, amastigote	15.1 µM
O=Cc1cn(Cc2ccccc2)c2ccc([N+](=O)[O-])cc12	parasite growth, resazurin		promastigote	> 100 µM
meglumine antimoniate			intracellular amastigotes	33.3 ± 1.2 µM
c1ccc(CN2CCCNCCN(Cc3ccccc3)CCCNCC2)cc1	parasite growth, resazurin		72 h, promastigote	9.4 µM

Repeated from above:
Molecule	test	system	setting	IC50
c1ccc(CN2CCN3CCCN(CC2)CCN(Cc2ccccc2)CC3)cc1	parasite growth, resazurin		72 h, amastigote	> 25 µM
